Experimental data from different studies.
Protocols differ between the studies behind these lines.
CDPK1: Calcium-dependent protein kinase 1 (CDPK1, Plasmodium falciparum, UniProt P62344)
Sequence of UniProt P62344 (whole entry, looked up): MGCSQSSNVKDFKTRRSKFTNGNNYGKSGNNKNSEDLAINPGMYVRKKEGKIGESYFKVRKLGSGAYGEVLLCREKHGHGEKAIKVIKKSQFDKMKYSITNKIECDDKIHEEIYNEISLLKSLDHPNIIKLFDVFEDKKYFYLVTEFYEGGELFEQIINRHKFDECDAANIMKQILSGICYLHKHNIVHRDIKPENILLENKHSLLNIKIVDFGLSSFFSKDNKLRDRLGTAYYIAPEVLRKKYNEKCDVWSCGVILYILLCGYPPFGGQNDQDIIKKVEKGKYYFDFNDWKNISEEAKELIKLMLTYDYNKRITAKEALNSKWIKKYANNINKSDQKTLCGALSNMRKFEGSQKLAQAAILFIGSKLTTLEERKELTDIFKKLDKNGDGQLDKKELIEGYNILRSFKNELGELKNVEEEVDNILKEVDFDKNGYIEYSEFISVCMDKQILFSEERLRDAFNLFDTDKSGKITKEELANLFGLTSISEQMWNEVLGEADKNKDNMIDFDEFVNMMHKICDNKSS
Sequence of UniProt P13945 (whole entry, looked up): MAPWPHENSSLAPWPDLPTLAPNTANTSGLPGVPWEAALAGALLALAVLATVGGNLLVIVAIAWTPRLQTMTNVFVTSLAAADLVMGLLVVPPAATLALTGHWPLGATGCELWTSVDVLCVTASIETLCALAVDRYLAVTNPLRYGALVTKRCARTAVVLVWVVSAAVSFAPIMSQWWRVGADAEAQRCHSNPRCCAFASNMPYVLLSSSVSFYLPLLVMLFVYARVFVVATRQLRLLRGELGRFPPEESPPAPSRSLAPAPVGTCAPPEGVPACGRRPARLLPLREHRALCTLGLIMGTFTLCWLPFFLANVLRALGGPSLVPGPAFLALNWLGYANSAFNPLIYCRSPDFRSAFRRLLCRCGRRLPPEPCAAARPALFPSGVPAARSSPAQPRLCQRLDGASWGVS
Sequence of UniProt P14780 (whole entry, unmodified, looked up): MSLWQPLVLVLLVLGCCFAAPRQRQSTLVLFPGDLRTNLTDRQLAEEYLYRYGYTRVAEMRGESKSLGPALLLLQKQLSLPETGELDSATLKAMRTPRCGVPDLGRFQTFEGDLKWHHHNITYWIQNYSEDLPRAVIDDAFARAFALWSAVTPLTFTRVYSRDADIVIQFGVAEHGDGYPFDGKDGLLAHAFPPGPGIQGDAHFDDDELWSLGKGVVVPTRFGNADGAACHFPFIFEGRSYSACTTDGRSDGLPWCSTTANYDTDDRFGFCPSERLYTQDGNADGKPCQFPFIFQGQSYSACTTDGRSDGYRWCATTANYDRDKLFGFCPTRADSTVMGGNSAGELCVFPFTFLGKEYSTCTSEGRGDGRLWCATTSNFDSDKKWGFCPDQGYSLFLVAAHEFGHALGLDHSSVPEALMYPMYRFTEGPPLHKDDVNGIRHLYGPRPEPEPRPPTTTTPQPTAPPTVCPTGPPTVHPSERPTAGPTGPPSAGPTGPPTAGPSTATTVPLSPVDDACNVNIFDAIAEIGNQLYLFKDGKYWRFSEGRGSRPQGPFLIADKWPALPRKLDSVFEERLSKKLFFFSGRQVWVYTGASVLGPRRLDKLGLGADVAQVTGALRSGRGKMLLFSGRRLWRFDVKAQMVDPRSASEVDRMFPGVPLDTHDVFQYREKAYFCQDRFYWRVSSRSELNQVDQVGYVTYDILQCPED

C[C@H](c1ccnc(Nc2nc3ccc(-c4cc(N(C)C)ncn4)cc3[nH]2)c1)N1CCN(C(=O)CC(F)(F)F)CC1 — remaining binding (CDPK1; cell-free assay, competition with immobilised ligand; 0.1 µM): 100%
COc1ccc(S(=O)(=O)N(CC(=O)NO)CC(C)C)cc1 — inhibition (MMP9 (Homo sapiens, UniProt P14780, Q279R); enzyme activity, inhibitor; 10 nM): 74%
CN1CC2c3ccccc3Oc3ccc(Cl)cc3C2C1 (stereo not drawn) — CC50 (HEK-293T/ACE2; 17.5 h): 42.5 µM
Cn1nc(C(F)(F)F)cc1-c1cnc(N2CCc3cc(S(=O)(=O)Nc4c(F)cc(Cl)cc4F)cc(N4CCCC4=O)c32)nc1 — remaining binding (CDPK1; cell-free assay, competition with immobilised ligand; 1 µM): 70%
CCOP(=S)(OCC)Oc1cc(C)nc(C(C)C)n1 — viability (HaCaT; 100 µM, 60 h): 143%
CC(CN(C)C)CN1c2ccccc2Sc2ccccc21 (stereo not drawn) — CC50 (HEK-293T/ACE2; 17.5 h): 29.5 µM
CCOC(=O)c1cc2cc(-c3cc(C(=O)NCc4ccc(C(=O)O)cc4)nn3C)ccc2[nH]1 — remaining binding (CDPK1; cell-free assay, competition with immobilised ligand; 0.1 µM): 100%
OCCN1CCN(CCCN2c3ccccc3Sc3ccc(Cl)cc32)CC1 — CC50 (HEK-293T/ACE2; 17.5 h): 27.4 µM
Cc1c(N2CCNCC2)nc2ccc(Br)cc2c1C(=O)NC[C@H](CCC(=O)O)c1ccccc1Cl — inhibition (ADRB3 (Homo sapiens, UniProt P13945); ligand displacement; 10 µM): -10.3%

Some of these lines once more:
CCOC(=O)c1cc2cc(-c3cc(C(=O)NCc4ccc(C(=O)O)cc4)nn3C)ccc2[nH]1 — remaining binding (CDPK1; cell-free assay, competition with immobilised ligand; 0.1 µM): 100%
